# Experimental data from different studies.
# RPS6KA1: Ribosomal protein S6 kinase alpha-1 (RPS6KA1, Homo sapiens, UniProt Q15418)
target,test,system,conditions,how to read,quantity,value,Structure (SMILES)
RPS6KA1,"binding, competition with immobilised ligand",,0.2 µM,,inhibition,8.15%,COc1ccc(O)cc1-c1c[nH]c2ncc(-c3cncc(C(=O)N(C)C)c3)cc12
"Ribosomal protein S6 kinase alpha-1, kinase domain 1 (RPS6KA1, Homo sapiens, UniProt Q15418)","probe labelling, inhibitor, KiNativ chemoproteomics",MOLT-4,1 µM,,inhibition,-17.2%,CS(=O)(=O)Nc1cccc(-c2csc3cnc(Nc4ccc(N5CCN(CCCCCOc6cccc7c6C(=O)N(C6CCC(=O)NC6=O)C7=O)CC5)cc4)nc23)c1 (centres unmarked)
RPS6KA1,"kinase activity, KinaseProfiler",,"0.03 µM, species human",baseline: control,remaining activity,92%,COc1ccc(NC(=O)Nc2ccc3c(c2)C(=O)N(C(C)CO)CC(C)C(CN(C)Cc2ccc4c(c2)OCO4)O3)cc1 (centres unmarked)
RPS6KA1,"kinase activity, radiometric",,10 µM,,remaining activity,110%,O=C(O)CCC(=O)c1cccc(NS(=O)(=O)c2c[nH]c3ncccc23)c1
RPS6KA1,"enzyme activity, inhibitor",,1 µM,,inhibition,1%,Cc1cccc(O[C@H]2CCC[C@@H](C(C)CNCc3ccncc3)C2)c1 (relative stereo)
RPS6KA1,"cell-free assay, inhibitor",,1 µM,,inhibition,2.9%,C=CC(=O)N1Cc2nc(-c3cc(-c4cc(Cl)cnc4Cl)c(F)cc3F)n(-c3ccncn3)c2C1
RPS6KA1,"enzyme activity, Dundee kinase panel",,10 µM,,remaining activity,68%,Cc1ccc(C)c(-c2ccc3nc(NC(=O)C4CCCCC4)nn3c2)c1
RPS6KA1,enzyme activity,,1 µM,baseline: DMSO control,remaining activity,62.1%,Nc1ncc(-c2cc(-c3cnn(CC(F)(F)F)c3)ncc2F)nc1C(=O)NC1CNCC(F)C1 (centres unmarked)
RPS6KA1,"enzyme activity, inhibitor",,1 µM,,inhibition,66%,Cc1nc2c(F)cc(-c3nc(Nc4ccc(CNC(=O)CCCCCCC(=O)NO)cc4)ncc3F)cc2n1C(C)C
RPS6KA1,"enzyme activity, inhibitor",,0.1 µM,,inhibition,9%,C=CC(=O)Nc1cccc(-c2cnc3[nH]cc(C(=O)NC(C)(C)C)c3n2)c1
RPS6KA1,"enzyme activity, inhibitor",,10 µM,,inhibition,33%,NC(=O)[C@@H](O)C[C@H]1CCc2sc3ncnc(O[C@H]4CC[C@H](N5CCOCC5)CC4)c3c21
RPS6KA1,"enzyme activity, Dundee kinase panel",,10 µM,,remaining activity,67%,Cc1cccc(-c2ccc3nc(NC(=O)C4CCCCC4)nn3c2)c1
RPS6KA1,"enzyme activity, inhibitor, radiometric",,1 µM,,inhibition,83%,Fc1cncc(-c2ccc3[nH]c4ncnc(N[C@H]5CC[C@H](N6CCOCC6)CC5)c4c3c2)c1
"Ribosomal protein S6 kinase alpha-1, kinase domain 2 (RPS6KA1, Homo sapiens, UniProt Q15418)","inhibitor, KiNativ profiling",biochemical,2 µM,,inhibition,8.7%,C=CC(=O)Nc1cc(-c2nn(C3CCN(CCNC(=O)[C@H](C)CCC45CC6CC(CC(C6)C4)C5)CC3)c3ncnc(N)c23)ccc1Oc1ccccc1
RPS6KA1,"enzyme activity, inhibitor",,1 µM,,inhibition,6%,CN1CC[C@@H](COc2cnc(C#N)cc2-c2ccn3nc(NC(=O)C4CC4)cc3c2)C1
RPS6KA1,"enzyme activity, inhibitor",,0.1 µM,,inhibition,4%,CN1CCN(Cc2ccc(-c3ccc(CO[C@H]4CCC[C@@H]4NC(=O)c4cc(-c5cnn(C)c5)cnc4N)cc3)cc2)CC1
RPS6KA1,"enzyme activity, inhibitor",,0.25 µM,,remaining activity,5%,c1ccc2c(Nc3cc(C4CCC4)[nH]n3)nc(Nc3ccc4nc[nH]c4c3)nc2c1
